Measured values collected from several papers.
Each line is one published result; not all experiments were run side by side. ± marks the error that the study gave.
cyp121: Mycocyclosin synthase (cyp121, Mycobacterium tuberculosis, UniProt P9WPP7)
SNCA fibrils: Alpha-synuclein, fibrils (SNCA, Homo sapiens, UniProt P37840)

By UniProt entry, the sequences of proteins in these tests, tags left out. Residues count along the entry.
UniProt P9WPP7, whole entry: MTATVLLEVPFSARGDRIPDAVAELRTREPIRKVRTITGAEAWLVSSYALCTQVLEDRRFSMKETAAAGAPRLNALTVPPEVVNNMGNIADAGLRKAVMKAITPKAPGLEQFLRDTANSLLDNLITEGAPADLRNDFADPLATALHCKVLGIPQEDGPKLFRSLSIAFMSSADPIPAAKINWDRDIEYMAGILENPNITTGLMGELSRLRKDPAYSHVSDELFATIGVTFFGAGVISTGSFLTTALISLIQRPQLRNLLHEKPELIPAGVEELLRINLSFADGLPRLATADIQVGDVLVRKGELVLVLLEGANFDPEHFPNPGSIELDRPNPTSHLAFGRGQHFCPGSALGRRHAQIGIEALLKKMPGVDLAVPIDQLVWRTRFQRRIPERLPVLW
UniProt P10378, whole entry: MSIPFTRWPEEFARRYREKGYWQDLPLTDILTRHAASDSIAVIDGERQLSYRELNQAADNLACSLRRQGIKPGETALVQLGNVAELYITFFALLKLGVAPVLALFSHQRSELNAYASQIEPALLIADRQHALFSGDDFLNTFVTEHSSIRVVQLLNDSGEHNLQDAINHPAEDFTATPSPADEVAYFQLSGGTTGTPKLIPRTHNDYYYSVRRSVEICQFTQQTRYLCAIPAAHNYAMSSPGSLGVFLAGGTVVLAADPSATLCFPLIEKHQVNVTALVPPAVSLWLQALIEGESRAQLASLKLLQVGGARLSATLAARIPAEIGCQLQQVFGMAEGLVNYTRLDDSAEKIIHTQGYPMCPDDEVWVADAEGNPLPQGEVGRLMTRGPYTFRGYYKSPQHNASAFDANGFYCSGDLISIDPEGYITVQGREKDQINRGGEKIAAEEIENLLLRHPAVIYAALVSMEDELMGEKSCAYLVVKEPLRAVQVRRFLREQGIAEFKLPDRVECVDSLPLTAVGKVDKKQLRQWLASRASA
UniProt Q965W2, 130-405 limits assumed: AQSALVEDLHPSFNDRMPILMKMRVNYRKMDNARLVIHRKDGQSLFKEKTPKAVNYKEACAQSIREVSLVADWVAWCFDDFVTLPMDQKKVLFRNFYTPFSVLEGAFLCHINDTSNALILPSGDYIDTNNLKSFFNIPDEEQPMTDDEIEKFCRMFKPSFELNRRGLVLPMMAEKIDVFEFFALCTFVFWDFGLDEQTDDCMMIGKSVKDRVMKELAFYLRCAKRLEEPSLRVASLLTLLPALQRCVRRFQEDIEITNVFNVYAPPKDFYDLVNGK
UniProt Q9Y3Z3, whole entry: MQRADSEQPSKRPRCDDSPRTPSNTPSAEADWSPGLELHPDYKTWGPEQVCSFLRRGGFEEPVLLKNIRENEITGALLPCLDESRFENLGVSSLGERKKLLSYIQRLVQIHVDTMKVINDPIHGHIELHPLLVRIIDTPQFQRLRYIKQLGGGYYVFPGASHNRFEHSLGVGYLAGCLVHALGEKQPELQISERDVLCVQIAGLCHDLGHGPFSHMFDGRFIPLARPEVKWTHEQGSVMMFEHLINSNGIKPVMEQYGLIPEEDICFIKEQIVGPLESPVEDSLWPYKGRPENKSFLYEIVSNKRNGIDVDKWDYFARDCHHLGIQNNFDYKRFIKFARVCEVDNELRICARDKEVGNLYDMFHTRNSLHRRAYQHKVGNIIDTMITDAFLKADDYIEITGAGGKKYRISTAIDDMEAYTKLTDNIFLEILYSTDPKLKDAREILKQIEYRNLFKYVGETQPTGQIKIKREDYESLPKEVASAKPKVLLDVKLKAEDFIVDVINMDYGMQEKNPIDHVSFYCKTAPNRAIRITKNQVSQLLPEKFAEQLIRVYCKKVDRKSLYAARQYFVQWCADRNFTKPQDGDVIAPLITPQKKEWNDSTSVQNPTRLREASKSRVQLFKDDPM
UniProt P29317, 596-900 limits assumed: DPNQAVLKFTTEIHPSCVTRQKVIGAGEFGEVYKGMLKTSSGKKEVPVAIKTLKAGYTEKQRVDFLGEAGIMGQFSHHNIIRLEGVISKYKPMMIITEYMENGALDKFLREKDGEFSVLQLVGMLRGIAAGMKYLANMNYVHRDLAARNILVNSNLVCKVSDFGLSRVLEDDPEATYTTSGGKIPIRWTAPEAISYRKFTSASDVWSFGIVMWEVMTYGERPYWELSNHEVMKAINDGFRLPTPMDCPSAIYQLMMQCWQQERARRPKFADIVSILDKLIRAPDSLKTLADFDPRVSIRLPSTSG
UniProt P40763, whole entry: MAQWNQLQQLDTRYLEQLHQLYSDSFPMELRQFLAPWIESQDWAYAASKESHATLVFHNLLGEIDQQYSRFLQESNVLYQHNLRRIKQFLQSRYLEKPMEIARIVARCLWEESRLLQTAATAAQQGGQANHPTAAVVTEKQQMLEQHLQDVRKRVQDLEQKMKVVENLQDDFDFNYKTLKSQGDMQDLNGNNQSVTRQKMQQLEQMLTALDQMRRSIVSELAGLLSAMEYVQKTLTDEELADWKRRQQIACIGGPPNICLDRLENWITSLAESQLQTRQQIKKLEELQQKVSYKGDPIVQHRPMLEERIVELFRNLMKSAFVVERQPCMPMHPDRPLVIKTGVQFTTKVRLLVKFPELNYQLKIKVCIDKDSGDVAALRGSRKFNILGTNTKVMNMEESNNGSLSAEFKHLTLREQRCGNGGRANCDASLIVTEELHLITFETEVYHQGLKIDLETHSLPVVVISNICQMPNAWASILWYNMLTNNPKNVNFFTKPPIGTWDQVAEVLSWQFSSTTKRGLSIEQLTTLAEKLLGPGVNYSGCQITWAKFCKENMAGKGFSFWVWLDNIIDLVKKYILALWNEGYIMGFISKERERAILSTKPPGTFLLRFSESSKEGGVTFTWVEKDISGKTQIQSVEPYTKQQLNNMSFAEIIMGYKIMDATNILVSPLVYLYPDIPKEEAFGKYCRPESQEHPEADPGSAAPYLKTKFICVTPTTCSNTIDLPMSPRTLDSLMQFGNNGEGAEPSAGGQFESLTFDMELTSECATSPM
UniProt O13683, 805-921 limits assumed: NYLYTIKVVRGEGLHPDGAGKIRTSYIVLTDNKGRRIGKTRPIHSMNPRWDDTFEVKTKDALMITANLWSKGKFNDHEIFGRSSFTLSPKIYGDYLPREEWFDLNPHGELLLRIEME
UniProt Q96SW2, 318-426 limits assumed: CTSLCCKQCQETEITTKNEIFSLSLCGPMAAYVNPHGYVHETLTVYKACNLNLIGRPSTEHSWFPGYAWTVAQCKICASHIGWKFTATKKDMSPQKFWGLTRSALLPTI
UniProt O34453, whole entry I218V: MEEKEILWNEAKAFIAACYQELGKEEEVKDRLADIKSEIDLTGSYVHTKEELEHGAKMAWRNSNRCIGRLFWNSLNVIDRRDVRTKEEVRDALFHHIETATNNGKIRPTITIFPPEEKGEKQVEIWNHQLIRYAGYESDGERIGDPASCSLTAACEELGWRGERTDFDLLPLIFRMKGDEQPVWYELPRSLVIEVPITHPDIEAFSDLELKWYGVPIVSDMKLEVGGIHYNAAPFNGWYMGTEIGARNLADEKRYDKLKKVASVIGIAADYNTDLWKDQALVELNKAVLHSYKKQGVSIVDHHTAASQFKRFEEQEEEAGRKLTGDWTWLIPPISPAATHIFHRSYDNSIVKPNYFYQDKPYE
UniProt Q5HH38, whole entry: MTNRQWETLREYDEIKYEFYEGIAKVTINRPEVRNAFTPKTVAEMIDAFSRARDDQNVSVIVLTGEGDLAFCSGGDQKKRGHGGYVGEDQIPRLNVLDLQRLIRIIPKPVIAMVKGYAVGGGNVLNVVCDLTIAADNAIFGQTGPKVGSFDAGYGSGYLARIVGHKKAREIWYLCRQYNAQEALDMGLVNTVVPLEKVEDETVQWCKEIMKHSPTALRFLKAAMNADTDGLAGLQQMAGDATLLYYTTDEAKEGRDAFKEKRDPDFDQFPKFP

SMILES	target	assay	system	conditions	Kd [µM]
CC(c1ccc2c(c1)[nH]c1cc(F)ccc12)n1ccnc1 (stereo not shown)	cyp121	binding	–	–	7.5 ± 0.8
Cc1nc2c[nH]c(/C=C/C=C/c3ccc(N(C)C)cc3)cn-2c1=O	SNCA fibrils	binding	–	–	0.77
O=C(NS(=O)(=O)OC[C@H]1O[C@@H](n2cnc3c(NCc4ccccc4)ncnc32)[C@H](O)[C@@H]1O)c1ccccc1O	Enterobactin synthase component E (Escherichia coli K-12, UniProt P10378)	binding	Escherichia coli	–	0.733 ± 0.045
Cc1ccc(Nc2nc(N)c3ccccc3n2)cc1Cl	Nuclear hormone receptor family member nhr-86 (nhr-86, Caenorhabditis elegans, UniProt Q965W2)	binding, tryptophan fluorescence quenching	purified ligand-binding domain	–	5.53
Nc1nc2c(ncn2[C@H]2C[C@H](O)[C@@H](COP(=O)(O)OCCCNC(=O)c3cccc(-c4cccc(Br)c4)c3)O2)c(=O)[nH]1	Deoxynucleoside triphosphate triphosphohydrolase SAMHD1, A1 site (SAMHD1, Homo sapiens, UniProt Q9Y3Z3)	binding at allosteric site A1, fluorescence anisotropy competition	–	1 µM protein	5 ± 1.2
Cc1cn(-c2cc(NC(=O)c3ccc(C)c(Nc4nc(-c5cccnc5)nc5c4cnn5C)c3)cc(C(F)(F)F)c2)cn1	EPHA2 (Homo sapiens, UniProt P29317)	binding, microscale thermophoresis	kinase domain	25 °C, 5% DMSO	0.033
CC(C)C(C(=O)N(Cc1ccc(C2CCCCC2)cc1)c1ccc(C(=O)O)cc1)N(C)S(=O)(=O)c1c(F)c(F)c(F)c(F)c1F (stereo not shown)	STAT3 (Homo sapiens, UniProt P40763)	surface plasmon resonance	–	His-tagged protein immobilized	0.324
CCCCCCCC/C=C\CCCCCCCC(=O)OC[C@H](COP(=O)(O)OC[C@H](N)C(=O)O)OC(=O)CCCCCCC/C=C\CCCCCCCC	Uncharacterized protein C11E3.02c, C2 domain (Schizosaccharomyces pombe, UniProt O13683)	liposome binding, liposome co-sedimentation	–	pH 7.4, 23 °C, together with: C2 domain 5 µM	~82
CN1CCN(c2ccc(-c3cccc(CN4CCN(CCNC(=O)CCCCCCCNc5cccc6c5C(=O)N(C5CCC(=O)NC5=O)C6=O)CC4)c3)cc2NC(=O)c2c[nH]c(=O)cc2C(F)(F)F)CC1 (stereo not shown)	Protein cereblon, thalidomide-binding domain (CRBN, Homo sapiens, UniProt Q96SW2)	binding, isothermal titration calorimetry	thalidomide-binding domain	25 °C	14.8 ± 1.3
COc1cc(/C=C/c2ccc3cc(O[11CH3])ccc3n2)ccn1	SNCA fibrils	fibril binding, homologous radioligand competition	–	1 h, 37 °C	0.021
Cc1cc(N)nc(-c2ccc(CNCCc3cccc(F)c3)cc2)c1	Nitric oxide synthase oxygenase (Bacillus subtilis, UniProt O34453, I218V)	binding, imidazole displacement	–	pH 7.6, together with: 1 mM imidazole	58 ± 4
OCCC(c1ccc(-c2ccc(F)cc2)cc1)n1ccnc1 (stereo not shown)	cyp121	binding	–	–	14 ± 2
COC(=O)C(CC(=O)c1ccc(Cl)cc1)SCCNC(=O)CCNC(=O)[C@H](O)C(C)(C)COP(=O)(O)OP(=O)(O)OC[C@H]1O[C@@H](n2cnc3c(N)ncnc32)[C@H](O)[C@@H]1OP(=O)(O)O (stereo partly shown)	1,4-dihydroxy-2-naphthoyl-CoA synthase (menB, Staphylococcus aureus, UniProt Q5HH38)	isothermal titration calorimetry	–	22 °C	2.8 ± 0.7

Some of these lines once more:
SMILES	target	assay	system	conditions	Kd [µM]
OCCC(c1ccc(-c2ccc(F)cc2)cc1)n1ccnc1 (stereo not shown)	cyp121	binding	–	–	14 ± 2
COC(=O)C(CC(=O)c1ccc(Cl)cc1)SCCNC(=O)CCNC(=O)[C@H](O)C(C)(C)COP(=O)(O)OP(=O)(O)OC[C@H]1O[C@@H](n2cnc3c(N)ncnc32)[C@H](O)[C@@H]1OP(=O)(O)O (stereo partly shown)	1,4-dihydroxy-2-naphthoyl-CoA synthase (menB, Staphylococcus aureus, UniProt Q5HH38)	isothermal titration calorimetry	–	22 °C	2.8 ± 0.7
